Published values gathered from unrelated publications.
Numbered parts are unrelated; each lists some results of a single study. Positions count from the first letter of the parent shown.

Series 1 — technique: protein binding microarray; molecule type: double-stranded DNA, one strand shown; medium: in vitro; tested at: not given; reference: not given; reading: higher = stronger binding; endpoint: E-score
Target: Histone acetyltransferase KAT6A, winged helix 1, GST fusion (KAT6A, Homo sapiens, UniProt Q92794, residues 1-85)
Notes: 8-mer, flanks averaged, mean of 2 arrays, mostly near background
Target sequence (chain): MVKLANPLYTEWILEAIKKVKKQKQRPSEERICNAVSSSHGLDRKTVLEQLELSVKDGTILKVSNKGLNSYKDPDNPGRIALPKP
GTAATGAC: -0.0367
CGAAAAAG: 0.0363
TATGTGAA: -0.0526
ATGAATAC: 0.028
CACCGGAG: 0.225
CTGGGACC: -0.0892
CTACGAAA: -0.228
CGTTTTAA: -0.125
AAAATTAG: -0.0189
ACTTCCCG: 0.115
GATTACGC: 0.171
AATAGGAC: -0.142
CCAAATGG: -0.206
TGGACCCA: -0.269
GCATGAGA: -0.143
CAGCCGTC: 0.251
AGGGGCCA: -0.15
CCGCGCGC: 0.481
GTGCCAAA: -0.164
GCATCATA: -0.0487
AATGATAT: 0.0302
CCGTGTAG: 0.176
TCATAGCA: -0.25
TAGCTTCA: -0.146
CTTAACAC: 0.013

Series 2 — technique: RNA Bind-n-Seq; molecule type: RNA; medium: in vitro; tested at: 365 nM; reference: no-protein control; reading: higher = stronger binding; endpoint: RBNS enrichment (R)
Target: RNA binding protein fox-1 homolog 2, RRM domain, GST-SBP tag (RBFOX2, Homo sapiens, UniProt O43251-10, residues 100-194)
Notes: natural RNA segment, single round, ends assumed
Constant ends, left off below: GGGAGUUCUACAGUCCGACGAUC … UGGAAUUCUCGGGUGCCAA
Construct (chain): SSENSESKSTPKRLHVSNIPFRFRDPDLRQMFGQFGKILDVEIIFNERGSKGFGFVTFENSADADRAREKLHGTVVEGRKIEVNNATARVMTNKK
UUGCUCUGUAGCCAUGUGAAGCUUGCUAGCCGCGGCUGUACAUCCUGUGACUUCCACCUUGGGUUUAGUAAUGGGAGCUUGAGAUUGGAGAGCUGAGUCCUCUGUGGGUU: 0.611
UGCUGUAAUCUAGUUGCUCUGGUAUAGAAGAGAACCCCAUGGGGCUGUGGGAGAGACAAUUCAGUGGCAGCCCACUGGCUUCUCUACCCAUUCCACAGGAACCCUAUUCC: 0.302
AACUAGCUCUAAAGCUAGUUAGUGACAAAGUUGGAUACCAAAAAUAGCCAACACUAUGACAUAAAAACUUUGUGUUCAAAAUGUACAAUUCACUUUAUACAUUAUUAAUA: 0.344
UCCAAAGAUAUAGCAGCUCAUAAAUUUAUCAAAAGUUCUGUCCACCCUCACCUCCUGCCAAGGGGAGAGAUCUAUUUCUACUACACGCUGUCUCUCCCAGUACAUCCCCG: 0.688
AGAAAGUCAGGAACUAGAGACCAGAGUCUGCAGGAACUUUGCCACUGCCCUUCACUGGCUAAUCCUGUACUUCUCUCUGUGUUCCUUGAGUGACAGGUGGUAAAACCCUU: 0.211
GGGCUCGUUGCACUUUAAGAAAUAGGAUCUGUGGUGUAUUCCAGGGGGCCUGAUGGACACCUUUCCCGGGCGUCUGCAGCUGCCCUGCCCGUGCCCGCCUGCAGUGGUUG: 0.347
AGGUGGAGAAGGCUUGUGCAGGUACAAACGACCUCAAGGACUGUGGCCUGCAACUGGAGACUGCUAAGCCCUGACGUCUGGUGCCGAGGUCGUCUGCAGGGUUUUGCCCU: 0.372
UUUCUGUGCUACGGAUUUACCAAAAAUUGUCAAGUCUUUUUCAGUUUAACAGUUCCUUUACAUGUGUAGUAUUUGAGGAAAAAAAUCAAUAAACAGUUGAUCUCGUGCAU: 0.38
UGUUUUCUUUAUUCCUUUUGCACUCUCGGUUCCCACCUUUGUGUUGGAGUUUACCAUGUUACCCUGUAAUUAAAAACAAAGAAUAGGUAACAUAUUGUGCCAGUGUUGCA: 0.766
ACGUGCUGCCUGUACAGGAGUCUCAAGCUGGAGCACUACUGCCCUGCCUUGGGCCUUGCUGCUGCUGCACCCAACUACUGAGCUGAGACCACUGAGUACCAGGGGCUGGG: 0.447
AGGGCCUUGAAUCCUUUUUUGUUUUCAACAGUCUUGCUGAAUUAAGCAGAAAGGGCCUUGAAUCCUGGCCUGGAAUUUGGGCAGAUAUAGCAUUAAUAAAACUGUGCAUC: 0.598
UUGUAGUUCUUUCUUUAAAAAACAUUUUUUUUAAAGAAGAAGAAGCCACUUGAACCCUCAAUAAAGGCUGUUGCCUAAGCAUGGCAUACUUCAUCUGUUCUCAUUUGUGC: 0.39

Series 3 — technique: protein-binding microarray; molecule type: double-stranded DNA, one strand shown; medium: in vitro; tested at: 250 nM; notes: 60-bp whole probe; added: salmon DNA 0.4 mg/ml; reference: random background probes; reading: higher = stronger binding; endpoint: log fluorescence; constant ends, left off below: GCCTAGCAC … GTCTTGATTCGCTTGACGCTGCTG
Target: Interferon regulatory factor 7, full length, phosphomimetic (IRF7, Homo sapiens, UniProt Q92985, residues 1-503, S101K/S471D/S472D/S475D/S476D/S477D/S483D/S484D/S487D)
Construct (chain): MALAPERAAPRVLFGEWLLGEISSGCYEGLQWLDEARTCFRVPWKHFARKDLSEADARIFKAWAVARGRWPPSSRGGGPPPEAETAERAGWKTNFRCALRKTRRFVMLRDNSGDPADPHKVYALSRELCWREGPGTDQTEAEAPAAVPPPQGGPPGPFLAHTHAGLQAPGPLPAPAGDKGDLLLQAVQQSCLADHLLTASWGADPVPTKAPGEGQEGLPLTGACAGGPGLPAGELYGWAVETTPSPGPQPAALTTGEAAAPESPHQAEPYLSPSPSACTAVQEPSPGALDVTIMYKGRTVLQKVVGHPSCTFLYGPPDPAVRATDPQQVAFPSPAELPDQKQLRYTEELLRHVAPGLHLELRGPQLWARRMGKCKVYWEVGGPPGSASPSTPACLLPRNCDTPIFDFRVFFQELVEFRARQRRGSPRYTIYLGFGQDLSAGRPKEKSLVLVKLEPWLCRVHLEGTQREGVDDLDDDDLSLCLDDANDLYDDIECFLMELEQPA
TTAGGACTGGGTATCGGTAAGTGCTAG: 0.15 z-score
TTAGAGCTCCTCCTTCTCTAAGTGCTA: -0.671 z-score
GACGGTATCGGGTATCGGGAGGTGCTA: 0.59 z-score
GACGGACTACTACTGCTGACGTGCTAG: -0.41 z-score
TTAGGACTGGGTTTCGGTTTGTGCTAG: 11.3 z-score
TGAGATCTCAGACTGGATTAGTGCTAG: -0.113 z-score
GACGATTTCAGTTCCGAAACGTGCTAG: 0.865 z-score
TGCTGTCTCAGAGTCCTCTGGTGCTAG: -0.395 z-score
TTGGGACTGGGACTGGGTTAGTGCTAG: -0.151 z-score
GACGGACTGAGGTTTCGGGACGTGCTA: 1.68 z-score
GACGGTATCCTTCTTCTGACGTGCTAG: 0.393 z-score
GACGGACTGGTTCTCCTGACGTGCTAG: -0.476 z-score
CTTTTTTTCAAGAAACAGTTCGTGCTA: 1.74 z-score
TCATGTCAACTTTCTCTGACTGTGCTA: 0.233 z-score
TTAGGTATCGGATTTCGGTTAGTGCTA: 2.45 z-score
CTAGATATCGGGACTGGATTAGTGCTA: 0.705 z-score
GACGGTTTCGACTTTCGGGACGTGCTA: 10.9 z-score
GACGATATCGGGACTAGAGACGTGCTA: -0.307 z-score
TGTGGTGCAGCTCCCTCCTCGTGCTAG: -1.02 z-score
TTAGGACTGGACTTTGGGTTAGTGCTA: -0.649 z-score
CATATATTCACTATAGTGTGGTGCTAG: 1.25 z-score
GACGAACTGAGTTTCGATACGTGCTAG: 6.43 z-score
TTAGATCTCATTCTCGATTAGTGCTAG: 1.77 z-score

Series 4 — technique: competition protein-binding microarray; molecule type: double-stranded DNA, one strand shown; medium: in vitro; tested at: 2 µM; added: Pho4 competitor, 0.05 µM; reading: higher = stronger binding; endpoint: fluorescence intensity; constant ends, left off below: … GTCTTGATTCGCTTGACGCTGCTG
Target: Centromere-binding protein 1, full length, His-tagged (CBF1, Saccharomyces cerevisiae, UniProt P17106, residues 1-351)
UniProt P17106, sequence (whole entry, looked up): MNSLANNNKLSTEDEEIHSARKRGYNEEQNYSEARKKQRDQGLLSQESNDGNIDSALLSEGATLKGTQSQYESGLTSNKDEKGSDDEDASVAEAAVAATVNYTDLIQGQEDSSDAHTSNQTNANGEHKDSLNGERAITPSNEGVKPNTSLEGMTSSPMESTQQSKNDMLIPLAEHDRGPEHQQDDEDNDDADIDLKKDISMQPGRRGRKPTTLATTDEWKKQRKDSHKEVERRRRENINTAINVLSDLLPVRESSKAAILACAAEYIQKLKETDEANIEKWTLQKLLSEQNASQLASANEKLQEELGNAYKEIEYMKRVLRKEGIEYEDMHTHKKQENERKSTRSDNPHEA
Notes: whole 60-bp probe, lowest competitor level
AGATTCTGCAAATGGTACGTGATGGTGGTCCGCGGA: 76.2 a.u.
CGGGGTTAAGTTTGTCACGCGACTTGCTTGCAGCAG: 519 a.u.
CGGGGTTAAGTTTGTCACCGCACTTGCTTGCAGCAG: 68.1 a.u.
CTTCTGTAAATTTGAAATGTGGGTGGACGCGCCCCG: 64.3 a.u.
GTCTTGTCTCATTGGTAGGTGGGTGTCCCCACTTCA: 69 a.u.
CTCGATCTACCGTTCCACGTGACTCGTCCAAGGATT: 6120 a.u.
CTAACGAAGGTTTGGGAGGTGGGTGACAAGCCAAGT: 68.1 a.u.
TCCTGATATTCTCCATTGTCATCCGTTTCGTCTTCC: 64.4 a.u.
ACCTAACCGGTGTCCCACGTGTTTCACGAAGGGCGC: 662 a.u.
TTTCCACAAACTCACCACGTTGAGAGTGTGTGTATA: 90 a.u.
TGCGCAACAACTTGCTCTGTGGGTGTATGTCTAGAA: 58 a.u.
AAATTACTAAGTTGGGCGGTGGGTGACGCCGTATGA: 64.3 a.u.
AAAGCGGTAATTTGGATAGTGGGTGCAGATATCTAT: 77.4 a.u.
TTATTTTTTCAGTCGCTCGTGGTCGATCGCCAACTT: 90.2 a.u.
GGGAAATAGACGTCGCACACGCCGAAGTATGTGTCC: 72 a.u.
GGCGTCGCTAGCTGGCACGGCACTGATTGCGGCGGG: 72.8 a.u.
TGCCTATGGTAGCTGCATGATCATACAATGCACTCC: 102 a.u.
CGGGGTTAAGTTTGGGCTGTGGGTGGCTTGCAGCAG: 51.7 a.u.
CACCTATCATCAGCCAACGTGACGGCCGCGATGCCT: 204 a.u.
CTTTCCCGATCTTTTCACGTGTCTTTAGCACATTTG: 1040 a.u.
AGCGCCTGCGCCCACCACGTGCTGGCAAGAATTGGG: 1140 a.u.
CTTGGAGACACCCTTCACGGGCCGCCCGGGTATCCG: 47.7 a.u.
CCTCAGGAAGACCTAAATGTGACGGTTCATCGTAGT: 73.2 a.u.
TGCGCAACAACTTGTCACCCAACTTTATGTCTAGAA: 73.4 a.u.
CACAAAGGTTCGTTGACCGTGCCGAGGAACTTCCGC: 64 a.u.

Series 5 — technique: universal PBM; molecule type: double-stranded DNA, one strand shown; medium: in vitro; tested at: 600 nM; reading: higher = stronger binding; endpoint: E-score
Target: Sal-like protein 4, full length isoform A (SALL4, Homo sapiens, UniProt Q9UJQ4, residues 1-1053)
UniProt Q9UJQ4, sequence (whole entry, looked up): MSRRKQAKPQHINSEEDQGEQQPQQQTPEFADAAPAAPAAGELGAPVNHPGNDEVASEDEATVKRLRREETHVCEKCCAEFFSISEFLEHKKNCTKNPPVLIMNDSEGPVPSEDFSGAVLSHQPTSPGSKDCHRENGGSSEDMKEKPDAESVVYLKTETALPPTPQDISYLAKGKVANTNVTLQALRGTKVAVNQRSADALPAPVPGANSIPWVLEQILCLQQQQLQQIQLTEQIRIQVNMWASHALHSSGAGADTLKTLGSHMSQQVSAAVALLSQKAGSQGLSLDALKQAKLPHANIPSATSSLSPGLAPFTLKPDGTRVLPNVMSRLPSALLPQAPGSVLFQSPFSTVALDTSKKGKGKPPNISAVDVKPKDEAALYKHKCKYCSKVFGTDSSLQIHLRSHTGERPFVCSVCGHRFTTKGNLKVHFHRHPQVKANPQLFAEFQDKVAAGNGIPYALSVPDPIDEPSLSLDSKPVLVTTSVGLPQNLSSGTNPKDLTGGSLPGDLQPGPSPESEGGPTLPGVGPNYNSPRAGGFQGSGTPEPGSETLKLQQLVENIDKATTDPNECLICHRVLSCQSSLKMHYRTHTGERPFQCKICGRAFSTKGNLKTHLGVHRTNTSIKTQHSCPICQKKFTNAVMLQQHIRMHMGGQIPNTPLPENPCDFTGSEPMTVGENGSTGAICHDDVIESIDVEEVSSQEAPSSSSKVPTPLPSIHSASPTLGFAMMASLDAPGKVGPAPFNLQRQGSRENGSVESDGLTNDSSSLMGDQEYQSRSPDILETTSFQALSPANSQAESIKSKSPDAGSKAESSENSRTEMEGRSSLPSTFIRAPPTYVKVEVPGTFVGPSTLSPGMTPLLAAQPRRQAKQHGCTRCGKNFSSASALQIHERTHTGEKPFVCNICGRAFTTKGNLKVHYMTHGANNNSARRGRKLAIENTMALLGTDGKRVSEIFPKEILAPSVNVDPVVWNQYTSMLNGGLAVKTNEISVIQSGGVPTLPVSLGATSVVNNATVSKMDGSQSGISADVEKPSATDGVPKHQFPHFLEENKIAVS
Notes: 8-mer, flanks averaged, mean of replicates
ATTGTAGA: 0.302
AAGATTCC: 0.0817
ACTAACCA: 0.0531
GATTCGCC: -0.0723
GGCCTCAA: -0.125
CTGATACC: 0.081
AGCCTATA: 0.197
AGGGGCCC: -0.385
AACTGTCT: -0.142
AATCGGTA: 0.157
CCATTGAA: 0.0299
CAAGAAGC: 0.0542
TCGCGCAA: 0.0931
GCTAATTA: 0.164
CAACCAGG: -0.19
AATACGGT: -0.00198

Series 6 — target: NFE2L2, bZIP domain (human); technique: DHFR protein complementation; medium: yeast; reference: wild-type JUN-FOS pair; reading: higher = stronger binding; endpoint: binding fitness
Notes: single substitutions, most at no-binding floor
Starting sequence: JUN, bZIP domain (human); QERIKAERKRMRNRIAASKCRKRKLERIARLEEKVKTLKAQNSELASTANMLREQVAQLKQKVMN; partner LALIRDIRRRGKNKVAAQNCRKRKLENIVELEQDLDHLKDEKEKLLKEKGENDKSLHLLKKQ
A29V: -1.27 natural log
A40G: -1.41 natural log
A46C: -1.47 natural log
E44P: -1.59 natural log
L38S: -1.53 natural log
K34M: -1.14 natural log
T48K: -1.11 natural log
R53G: -1.54 natural log
M51V: -1.4 natural log
E33S: -1.27 natural log
E44R: -1.38 natural log
L31G: -1.47 natural log
V56H: -1.48 natural log
T37G: -1.44 natural log
M51T: -1.51 natural log
M51C: -1.43 natural log
E33Q: -1.6 natural log
E33N: -1.4 natural log
S43D: -1.55 natural log
